Published values collected from several papers.
A part holds a random share of what one study measured.

Set 1 — technique: universal PBM; form: double-stranded DNA, one strand shown; matrix: in vitro; tested at: not given; direction: higher = stronger binding
Target: Sal-like protein 4, full length isoform B (SALL4, Homo sapiens, UniProt Q9UJQ4-2, residues 1-616)
Setting: 8-mer, flanks averaged, mean of replicates
Target sequence (chain): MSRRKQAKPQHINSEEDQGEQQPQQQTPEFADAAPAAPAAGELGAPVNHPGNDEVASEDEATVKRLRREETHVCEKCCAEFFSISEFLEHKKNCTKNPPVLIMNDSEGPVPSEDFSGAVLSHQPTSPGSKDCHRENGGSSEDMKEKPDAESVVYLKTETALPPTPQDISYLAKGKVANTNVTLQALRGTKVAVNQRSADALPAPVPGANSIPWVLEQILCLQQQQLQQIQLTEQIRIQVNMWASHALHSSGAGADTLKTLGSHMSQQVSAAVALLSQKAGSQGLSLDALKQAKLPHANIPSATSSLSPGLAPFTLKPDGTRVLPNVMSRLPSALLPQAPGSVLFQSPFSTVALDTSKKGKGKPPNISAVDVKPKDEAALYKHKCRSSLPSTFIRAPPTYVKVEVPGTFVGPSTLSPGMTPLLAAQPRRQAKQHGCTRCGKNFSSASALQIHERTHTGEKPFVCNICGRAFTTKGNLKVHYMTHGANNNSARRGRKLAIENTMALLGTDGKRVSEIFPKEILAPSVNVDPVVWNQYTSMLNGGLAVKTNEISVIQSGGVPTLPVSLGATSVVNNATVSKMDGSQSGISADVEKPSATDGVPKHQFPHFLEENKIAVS
The E-score of `GCGAGGAC` is reported as -0.292.
`GAGCTTGA` has an E-score of -0.179.
The E-score of `CGCGGTTA` is reported as -0.135.
With `TCTGGTAA` the E-score was 0.0204.
`TAGATCGA` has an E-score of 0.0863.
The E-score of `ATTAGAGC` is reported as 0.195.
`CCAAGTCC` has an E-score of -0.26.
The E-score of `CTAAAGCC` is reported as 0.0266.
The E-score of `AGTGAATG` is reported as 0.119.
`ATGAACGG` gave an E-score of 0.0415.

Set 2 — technique: RNA Bind-n-Seq; form: RNA; matrix: in vitro; tested at: not given; setting: RNA with constant flanks, ends assumed; baseline: input RNA pool; direction: higher = stronger binding
Target: RING finger protein unkempt homolog, zinc fingers 1-6, GST-SBP tag (UNK, Homo sapiens, UniProt Q9C0B0, residues 30-357)
Chain of UniProt Q9C0B0 (30-357, looked up): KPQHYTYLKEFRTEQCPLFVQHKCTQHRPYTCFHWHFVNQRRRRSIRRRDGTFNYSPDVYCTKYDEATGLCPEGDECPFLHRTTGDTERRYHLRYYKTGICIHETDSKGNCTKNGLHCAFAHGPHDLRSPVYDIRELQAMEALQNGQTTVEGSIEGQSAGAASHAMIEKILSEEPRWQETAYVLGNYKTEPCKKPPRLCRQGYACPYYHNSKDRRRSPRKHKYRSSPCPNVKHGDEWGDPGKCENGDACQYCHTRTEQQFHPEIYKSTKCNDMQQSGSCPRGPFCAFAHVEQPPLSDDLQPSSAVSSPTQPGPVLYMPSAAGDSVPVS
`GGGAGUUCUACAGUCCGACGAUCUUGGGGUAACGUGCACUGUAAGACGUAUGUAACAUGAUGUUAACUUUGUGGUCUAAAGUGUUCCGCUGUCAAGCCGGAUGCCUAAGUAGACCAAAUCUUGUUAUUGAAGUGUUCUGAGCUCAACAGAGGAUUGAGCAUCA` has a bound/input enrichment of 0.189 ratio.
`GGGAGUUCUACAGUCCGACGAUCGUUCUUCUCCCAGAAUAUGGAGGCACCAAAGUAGUUCUAGAUGACAAGGAUUAUUUCUUAUUCCGAGAUAGUGACAUUCUUGGAAAGUAUGUCGACUGAAAUCACUGUUGAAAUGGUGUCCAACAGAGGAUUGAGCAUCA` gave a bound/input enrichment of 0.279 ratio.
`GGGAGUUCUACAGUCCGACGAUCAAAUAAAUAUUUAAUUUUUUUAAUUGCUCUUGUAUAAUCAGAUGCCCUUUUUAGUAUUAUUUCCGAAGCAUUUGGGAGGAUUUUGCCUAAAAUACAAUUUAUUGGGGGAGACUAGAUUUUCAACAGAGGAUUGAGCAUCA` gave a bound/input enrichment of 4.32 ratio.
`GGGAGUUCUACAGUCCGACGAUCUUUAAUGACUCUCAGCGUCAGGCUACCAAAGAUGCUGGAACUAUUGCUGGUCUCAAUGUACUCCGAAUUAUUAAUGAGCCAACUGCUGCUGCUAUUGCUUACGGCUUAGACAAAAAGGUUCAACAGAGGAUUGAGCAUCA` gave a bound/input enrichment of 0.827 ratio.
With `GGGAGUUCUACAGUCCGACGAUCAAAAAAAGAAUAAAAAUCAGCCAUUUUCAACAAUUUAUAUUAUUUUUAAAAAUAAAUUUCACCCGUGCAUGGUUUUAAAAAGGAGAGAGAAUGCAACAGGGUGAUACAAAGAUACACCAUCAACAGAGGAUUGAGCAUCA` the bound/input enrichment was 3.18 ratio.
`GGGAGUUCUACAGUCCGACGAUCCUGUUCUCCUAUGGUUGAUAAAGCUUUAAAUACUAUUUAAAGUGGUUCUGGUCUGUACUUACCCGCACUUCCCUGAACAGUCUCAAAAUAGCCUAAACAUAAGAAAACAAUCCUGCAAAGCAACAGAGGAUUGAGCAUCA` has a bound/input enrichment of 0.523 ratio.
The bound/input enrichment of `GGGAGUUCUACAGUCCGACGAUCUAUCACAUACACAUAAAAAAGGGAAGAAAUUCGGCAGUGAAUGAAGAUUCCUCUGCAUUUCCGCAUUGCUUUUUCUACUGUAGUUGGCUUUUGAAUGAGGAUGACAAUGGAAGAGAUGAACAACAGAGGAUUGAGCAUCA` is reported as 0.351 ratio.

Set 3 — technique: protein-binding microarray; form: hairpin DNA; matrix: in vitro; tested at: not given; baseline: not given; direction: higher = stronger binding; constant ends, left off below: GAGGCCG … CGGCCTCACACTC
Target: Cyclic AMP-dependent transcription factor ATF-1, full length (ATF1, Homo sapiens, UniProt P18846, residues 1-271)
Setting: whole hairpin DNA, median over replicate spots
Target sequence (chain): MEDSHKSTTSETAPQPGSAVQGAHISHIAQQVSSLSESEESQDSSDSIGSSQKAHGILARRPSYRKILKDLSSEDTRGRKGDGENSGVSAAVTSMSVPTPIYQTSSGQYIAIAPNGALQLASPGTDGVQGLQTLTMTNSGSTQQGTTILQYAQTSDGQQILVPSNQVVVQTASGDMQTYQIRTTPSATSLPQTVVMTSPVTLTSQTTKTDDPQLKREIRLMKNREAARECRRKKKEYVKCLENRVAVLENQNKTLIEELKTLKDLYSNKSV
With `CGGACGTCGTGCCTCCTGGCACGACGTCCG (5mC at 15 29 35 36)` the median fluorescence was 3800 a.u.
`GATCGCGTCAGCCTCCTGGCTGACGCGATC (5mC at 11)` gave a median fluorescence of 3810 a.u.
`CGGACGTCGTGCCTCCTGGCACGACGTCCG (5mC at 8 15 29 35 36)` has a median fluorescence of 3750 a.u.
With `GATGACGCGAGCCTCCTGGCTCGCGTCATC (5mC at 15 29)` the median fluorescence was 8690 a.u.
The median fluorescence of `GCTGACGTCAGCCTCCTGGCTGACGTCAGC (5mC at 9)` is reported as 10700 a.u.
The median fluorescence of `CCTGACGTCAGCCTCCTGGCTGACGTCAGG (5mC at 8)` is reported as 8870 a.u.

Mixed results
The fold induction of `PhoQ, residues 284 288 289 292 302 303 QWQEDG` is reported as 4.94 (PhoP, residues 12 14 15 18 19 NQGLL (Escherichia coli, UniProt P23836); Sort-seq, item: YFP reporter; E. coli; PhoQ-PhoP variant library, with: 10 µM Mg2+; baseline: high Mg2+ state, higher = stronger signaling).

Excerpt of the above (set 2):
`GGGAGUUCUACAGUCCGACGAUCUUUAAUGACUCUCAGCGUCAGGCUACCAAAGAUGCUGGAACUAUUGCUGGUCUCAAUGUACUCCGAAUUAUUAAUGAGCCAACUGCUGCUGCUAUUGCUUACGGCUUAGACAAAAAGGUUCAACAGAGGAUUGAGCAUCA` gave a bound/input enrichment of 0.827 ratio.
With `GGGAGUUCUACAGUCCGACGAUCAAAAAAAGAAUAAAAAUCAGCCAUUUUCAACAAUUUAUAUUAUUUUUAAAAAUAAAUUUCACCCGUGCAUGGUUUUAAAAAGGAGAGAGAAUGCAACAGGGUGAUACAAAGAUACACCAUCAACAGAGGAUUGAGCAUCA` the bound/input enrichment was 3.18 ratio.
`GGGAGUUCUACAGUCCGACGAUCCUGUUCUCCUAUGGUUGAUAAAGCUUUAAAUACUAUUUAAAGUGGUUCUGGUCUGUACUUACCCGCACUUCCCUGAACAGUCUCAAAAUAGCCUAAACAUAAGAAAACAAUCCUGCAAAGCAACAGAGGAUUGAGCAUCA` has a bound/input enrichment of 0.523 ratio.
